Published values gathered from unrelated publications.
Lines come from different studies, so protocols differ. ± gives the spread as reported.

Structure (SMILES) = CCCCCCCCCCCC(=O)NCC(=O)N[C@@H](CC(C)C)C(=O)N[C@@H](CC(C)C)C(=O)N[C@@H](CCCCN)C(=O)N[C@@H](CCCNC(=N)N)C(=O)N[C@H](C(=O)N[C@@H](CCCCN)C(=O)N[C@H](C(=O)N[C@@H](CC(C)C)C(=O)N[C@@H](CC(C)C)C(N)=O)[C@@H](C)O)[C@@H](C)CC; target or system = human erythrocytes; conditions = 1 h, 37 °C, 10% haemolysis; measurement = minimum haemolytic concentration; value = 11.4 µM
Structure (SMILES) = COc1cc(C(=O)NCCOCCOCCOCCNC(=O)c2ccc([18F])nc2)ccc1NC(=O)C1NC(CC(C)(C)C)C(C#N)(c2ccc(Cl)cc2F)C1c1cccc(Cl)c1F (stereo not drawn); target or system = HepG2 tumour model; system = host not given, muscle; conditions = 2 h, tumour-bearing; measurement = tracer uptake; value = 0.88 %ID/g
Structure (SMILES) = CCCCCCCCCC(=O)NCC(=O)N[C@@H](CC(C)C)C(=O)N[C@@H](CC(C)C)C(=O)N[C@@H](CCCCN)C(=O)N[C@@H](CCCNC(=N)N)C(=O)N[C@H](C(=O)N[C@@H](CCCCN)C(=O)N[C@H](C(=O)N[C@@H](CC(C)C)C(=O)N[C@@H](CC(C)C)C(=O)NCCCC[C@H](NC(=O)[C@H](CC(C)C)NC(=O)[C@H](CC(C)C)NC(=O)[C@@H](NC(=O)[C@H](CCCCN)NC(=O)[C@@H](NC(=O)[C@H](CCCNC(=N)N)NC(=O)[C@H](CCCCN)NC(=O)[C@H](CC(C)C)NC(=O)[C@H](CC(C)C)NC(=O)CNC(=O)CCCCCCCCC)[C@@H](C)CC)[C@@H](C)O)C(N)=O)[C@@H](C)O)[C@@H](C)CC; target or system = human erythrocytes; conditions = 1 h, 37 °C, 10% haemolysis; measurement = minimum haemolytic concentration; value = 26.6 µM
Structure (SMILES) = O=C(CCc1ccccc1)NOC(=O)OCc1ccccc1; target or system = MCF7; conditions = 100 µM; measurement = viability; value = > 85%
Structure (SMILES) = O=C(O)CCC(NP(=O)(O)OCCC[C@@H](NC(=O)CCC(NC(=O)CCCCCNC(=O)CCCCCNC(=O)c1ccc([18F])cc1)C(=O)O)C(=O)O)C(=O)O (stereo partly drawn); target or system = CWR22Rv1 tumour model; system = host not given, lung; conditions = intravenous, 2 h, tumour-bearing; measurement = tracer uptake; value = 0.11 %ID/g
Structure (SMILES) = CCC(=O)N(C)c1ccc(Cl)c(Cl)c1; target or system = Salmonella typhimurium; test = Ames test; system = TA1535; conditions = 5.00 mg/plate, with rat liver S9; measurement = revertant colonies; value = 0 revertants/plate
Structure (SMILES) = COc1ccc(CNc2nc(N3CCC[C@H]3CO)ncc2C(=O)NN)cc1Cl; target or system = Salmonella typhimurium; system = TA102; conditions = 500 µg/plate; measurement = revertant count; value = 274 ± 8
Structure (SMILES) = O=C(O)CCC(NP(=O)(O)OCCC[C@@H](NC(=O)CCC(NC(=O)CCCCCNC(=O)c1ccc([18F])cc1)C(=O)O)C(=O)O)C(=O)O (stereo partly drawn); target or system = CWR22Rv1 tumour model; system = host not given, tumour; conditions = intravenous, 2 h, tumour-bearing; measurement = tracer uptake; value = 1.65 %ID/g
Structure (SMILES) = COc1ccc(CNc2nc(N3CCC[C@H]3CO)ncc2C(=O)NNC(=O)c2cnc(N3CCC[C@H]3CO)nc2NCc2ccc(OC)c(Cl)c2)cc1Cl; target or system = Salmonella typhimurium; system = TA98; conditions = 1000 µg/plate, 48 h, added: rat liver S9; measurement = revertant count; value = 31 ± 5
Structure (SMILES) = Cc1nc([C@H](NC(=O)c2ccc(-c3ccc(Cl)cc3)[nH]2)[C@H]2CCCCN2)sc1CO; target or system = MT2; test = cell growth or viability, XTT; measurement = CC50; value = ~20 µM
Structure (SMILES) = CCCCCCCC(=O)NCC(=O)N[C@@H](CC(C)C)C(=O)N[C@@H](CC(C)C)C(=O)N[C@@H](CCCCN)C(=O)N[C@@H](CCCNC(=N)N)C(=O)N[C@H](C(=O)N[C@@H](CCCCN)C(=O)N[C@H](C(=O)N[C@@H](CC(C)C)C(=O)N[C@@H](CC(C)C)C(=O)NCCCC[C@H](NC(=O)[C@H](CC(C)C)NC(=O)[C@H](CC(C)C)NC(=O)[C@@H](NC(=O)[C@H](CCCCN)NC(=O)[C@@H](NC(=O)[C@H](CCCNC(=N)N)NC(=O)[C@H](CCCCN)NC(=O)[C@H](CC(C)C)NC(=O)[C@H](CC(C)C)NC(=O)CNC(=O)CCCCCCC)[C@@H](C)CC)[C@@H](C)O)C(N)=O)[C@@H](C)O)[C@@H](C)CC; target or system = human erythrocytes; conditions = 1 h, 37 °C, 10% haemolysis; measurement = minimum haemolytic concentration; value = 5.67 µM
Structure (SMILES) = Cl.Cl.Cl.Cl.Cl.Cl.Cl.Cl.Cl.Cl.Cl.Cl.NC[C@@H]1O[C@H](O[C@H]2[C@@H](O)[C@H](O[C@@H]3[C@@H](O)[C@H](N)C[C@H](N)[C@H]3O[C@H]3O[C@H](CN)[C@@H](O)[C@H](O)[C@H]3N)O[C@@H]2Cn2cc(CCCc3cn(C[C@H]4O[C@@H](O[C@@H]5[C@@H](O)[C@H](N)C[C@H](N)[C@H]5O[C@H]5O[C@H](CN)[C@@H](O)[C@H](O)[C@H]5N)[C@H](O)[C@@H]4O[C@H]4O[C@@H](CN)[C@@H](O)[C@H](O)[C@H]4N)nn3)nn2)[C@H](N)[C@@H](O)[C@@H]1O; target or system = MT-2; test = cytotoxicity; measurement = CT5; value = > 138 µM
Structure (SMILES) = C[C@@](O)(C(F)F)[C@H](NC(=O)c1ccc(C#CC#CC2CC2)cc1)C(=O)NO; system = dog, plasma; conditions = intravenous, 100 mg/kg; measurement = AUC(0-inf); value = 141 µg·h/mL
Structure (SMILES) = N=C(N)NCCCCCCN1CCC23c4c5ccc(O)c4OC2c2nc4ccccc4cc2CC3(O)C1C5 (stereo not drawn); target or system = delta opioid receptor; system = CD-1 mice, male, brain; conditions = subcutaneous, 30 mg/kg, 80 min; measurement = brain concentration over EC50; value = > 100 fold
Structure (SMILES) = CN(C)CC1CCCCC1(O)c1cccc(O)c1 (stereo not drawn); target or system = Caco-2 TC7 monolayer; conditions = 10 µM, 3 h, apical pH 6.8, basolateral pH 7.4; scale = baseline: B-to-A over A-to-B; measurement = efflux ratio; value = 1.8
Structure (SMILES) = CN(C)CCNC(=O)/C=C/C(Cc1ccccc1)Nc1ccnc2cc(Cl)ccc12 (stereo not drawn); target or system = Plasmodium falciparum; system = Vero, 3D7 chloroquine-sensitive; scale = baseline: CC50 Vero over IC50 parasite; measurement = selectivity ratio; value = 1140
Structure (SMILES) = CC[C@H](C)C(=O)N1CCC(NC(=O)Nc2ccc(OC(F)(F)F)c(F)c2)CC1; system = healthy volunteers; conditions = oral, 24 mg single dose; measurement = subjects with UTI TEAE; value = 0%
Structure (SMILES) = CN[C@](C)(C[18F])C(=O)O; target or system = A549 tumour model; system = host not given, pancreas; conditions = 30 min, tumour-bearing; measurement = tracer uptake; value = 38 %ID/g
